Results from different studies.
Each numbered part is a random draw from the data of one study; scales do not carry over between parts. Changes are numbered by the printed parent chain.

Study 1
Target: UBE2D2 UBC core domain (UniProt P62837)
UniProt P62837, sequence (whole entry, looked up): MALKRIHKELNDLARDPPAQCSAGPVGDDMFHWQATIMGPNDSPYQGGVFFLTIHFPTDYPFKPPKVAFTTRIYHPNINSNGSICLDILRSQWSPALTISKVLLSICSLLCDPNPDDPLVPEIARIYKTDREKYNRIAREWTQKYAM
Method: yeast two-hybrid
Medium: yeast
Notes: mostly zero background
Reference: not given
Direction: higher = stronger interaction
B1: RLIM RING domain (UniProt Q9NVW2); chain SFGENDALKTCSVCITEYTEGNKLRKLPCSHEYHVHCIDRWLSENSTCPICRRAVLASGNRE
B2: RNF183 RING domain (UniProt Q96D59); chain EQQGRELEAECPVCWNPFNNTFHTPKMLDCCHSFCVECLAHLSLVTPARRRLLCPLCRQPTVLASGQP
B3: MEX3B RING domain (UniProt Q6ZN04); chain SGLRRKGSRDCSVCFESEVIAALVPCGHNLFCMECANRICEKSEPECPVCHTAVTQAIRIF
| Molecule | lacZ reporter activity |
| --- | --- |
| FVKTVEDKYKCEKCHLVLCSPKQTECGHRFCESCMAALLSSSSPKCTACQESIVKDKVF (TRAF3 RING domain (UniProt Q13114)) | 0 |
| LGTKLEAKYLCSACRNVLRRPFQAQCGHRYCSFCLASILSSGPQNCAACVHEGIYEEGIS (TRAF2 RING domain (UniProt Q12933)) | 0 |
| B1 (RLIM RING domain) | 0 |
| B2 (RNF183 RING domain) | 0 |
| B3 (MEX3B RING domain) | 0 |
| LDAASGHPLVCPLCHGQYERPCLLDCFHDFCTGCLRGRATDGRLSCPLCQHQTLVKGPSG (Rnf207 RING domain (UniProt Q3V3A7)) | 0 |

Study 2
Target: CCND3, cyclin fold, Cln2 fusion (human)
Method: yeast growth competition, sequencing
Medium: yeast
Notes: weak parent motif
Reference: not given
Direction: higher = stronger binding
Parent: viral docking peptide; KGVKRKLFAEDSS
| Substitution | normalised enrichment score |
| --- | --- |
| D11P | 0.00325 |
| L7F | 0.316 |
| F8C | 0.28 |
| K4Q | -0.0154 |
| E10A | 0.185 |
| R5V | 0.413 |
| F8L | -0.0893 |
| K4D | 0.116 |
| S12N | 0.122 |
| K4I | 0.429 |
| R5S | -0.273 |
| F8S | -0.0375 |
| R5H | 0.347 |
| F8I | 0.303 |

Study 3
Target: Cellular tumor antigen p53, full length (TP53, Homo sapiens, UniProt P04637, residues 1-393)
Method: protein-binding microarray
Form: hairpin DNA
Medium: in vitro
Tested at: not given
Notes: whole hairpin DNA, median over replicate spots
Reference: not given
Direction: higher = stronger binding
| Sequence | median fluorescence [a.u.] |
| --- | --- |
| CCACACGTGGCGGCATGCCTTCCTAGGCATGCCGCCACGTGTGGACACTC (5mC at 11) | 6960 |
| CCACACCGGGTGGCATGCCTTCCTAGGCATGCCACCCGGTGTGGACACTC (5mC at 7) | 6830 |
| CGGACAAGCCCGGGCATGTCTCCTGACATGCCCGGGCTTGTCCGACACTC | 20200 |
| CGGACATGACCGGGCATGTCTCCTGACATGCCCGGTCATGTCCGACACTC | 15400 |
| CGGACATGCCGGGGCATGTCTCCTGACATGCCCCGGCATGTCCGACACTC (5mC at 10) | 15300 |
| CCACACGTGGTGGCGTGCCTTCCTAGGCACGCCACCACGTGTGGACACTC (5mC at 14) | 4310 |
| CGGACACGCCCGGGCATGTCTCCTGACATGCCCGGGCGTGTCCGACACTC | 14700 |
| CGGACATCCCCGGGCATGTCTCCTGACATGCCCGGGGATGTCCGACACTC (5mC at 8) | 11000 |

Study 4
Target: HLA class I histocompatibility antigen, A alpha chain, allele A*25:01 (Homo sapiens, UniProt P04439)
Observed: peptide-MHC binding
Form: peptide
Tested at: concentration not given
| Molecule | binding |
| --- | --- |
| KTVRYWHRF | inactive |
| YEPEMQAQV | inactive |
| MHCDFAFWV | inactive |
| ETMKPAAMV | inactive |

A few entries again (study 1):
| Molecule | lacZ reporter activity |
| --- | --- |
| LGTKLEAKYLCSACRNVLRRPFQAQCGHRYCSFCLASILSSGPQNCAACVHEGIYEEGIS (TRAF2 RING domain (UniProt Q12933)) | 0 |
| B3 (MEX3B RING domain) | 0 |
| B2 (RNF183 RING domain) | 0 |
| B1 (RLIM RING domain) | 0 |
| FVKTVEDKYKCEKCHLVLCSPKQTECGHRFCESCMAALLSSSSPKCTACQESIVKDKVF (TRAF3 RING domain (UniProt Q13114)) | 0 |
